{"data": "Literature values, collected from citations in different studies", "Cytosol aminopeptidase": "Cytosol aminopeptidase (Sus scrofa, UniProt P28839)", "DRD1": "D(1A) dopamine receptor (DRD1, Homo sapiens, UniProt P21728)", "CHRNA1/CHRNG/chrnd": "CHRNA1/CHRNG/chrnd (Tetronarce californica, UniProt P02710+P02714+P02718)", "note": "Protocols differ between the studies behind these lines. ± gives the spread as reported.", "UniProt P02714, sequence (whole entry, looked up)": "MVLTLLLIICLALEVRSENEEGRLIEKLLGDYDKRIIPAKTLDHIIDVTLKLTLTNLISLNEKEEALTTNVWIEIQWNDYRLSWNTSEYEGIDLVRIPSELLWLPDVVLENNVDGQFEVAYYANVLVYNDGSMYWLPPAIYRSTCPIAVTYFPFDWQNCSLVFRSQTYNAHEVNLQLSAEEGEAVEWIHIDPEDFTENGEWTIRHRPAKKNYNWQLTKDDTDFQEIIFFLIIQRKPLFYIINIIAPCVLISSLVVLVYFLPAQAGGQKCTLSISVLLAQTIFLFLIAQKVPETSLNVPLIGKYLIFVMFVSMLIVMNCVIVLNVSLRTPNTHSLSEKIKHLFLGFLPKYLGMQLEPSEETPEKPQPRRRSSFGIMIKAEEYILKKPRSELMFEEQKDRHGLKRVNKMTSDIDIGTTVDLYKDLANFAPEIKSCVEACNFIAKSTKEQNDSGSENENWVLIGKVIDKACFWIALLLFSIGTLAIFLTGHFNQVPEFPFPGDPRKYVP", "UniProt P28839, sequence (whole entry, looked up)": "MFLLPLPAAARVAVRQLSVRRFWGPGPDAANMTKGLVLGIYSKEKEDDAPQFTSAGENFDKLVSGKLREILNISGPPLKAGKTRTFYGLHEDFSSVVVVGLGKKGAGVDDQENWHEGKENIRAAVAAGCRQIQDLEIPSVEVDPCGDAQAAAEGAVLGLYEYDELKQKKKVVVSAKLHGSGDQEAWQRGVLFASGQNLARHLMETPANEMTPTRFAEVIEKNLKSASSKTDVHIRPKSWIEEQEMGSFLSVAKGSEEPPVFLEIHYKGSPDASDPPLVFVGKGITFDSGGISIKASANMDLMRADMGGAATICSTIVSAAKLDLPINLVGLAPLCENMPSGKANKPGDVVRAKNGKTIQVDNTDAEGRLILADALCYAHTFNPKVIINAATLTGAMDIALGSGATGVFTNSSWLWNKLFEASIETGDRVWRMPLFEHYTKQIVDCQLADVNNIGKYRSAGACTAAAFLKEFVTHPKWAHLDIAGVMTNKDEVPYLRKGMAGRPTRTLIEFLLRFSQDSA", "UniProt P02718, sequence (whole entry, looked up)": "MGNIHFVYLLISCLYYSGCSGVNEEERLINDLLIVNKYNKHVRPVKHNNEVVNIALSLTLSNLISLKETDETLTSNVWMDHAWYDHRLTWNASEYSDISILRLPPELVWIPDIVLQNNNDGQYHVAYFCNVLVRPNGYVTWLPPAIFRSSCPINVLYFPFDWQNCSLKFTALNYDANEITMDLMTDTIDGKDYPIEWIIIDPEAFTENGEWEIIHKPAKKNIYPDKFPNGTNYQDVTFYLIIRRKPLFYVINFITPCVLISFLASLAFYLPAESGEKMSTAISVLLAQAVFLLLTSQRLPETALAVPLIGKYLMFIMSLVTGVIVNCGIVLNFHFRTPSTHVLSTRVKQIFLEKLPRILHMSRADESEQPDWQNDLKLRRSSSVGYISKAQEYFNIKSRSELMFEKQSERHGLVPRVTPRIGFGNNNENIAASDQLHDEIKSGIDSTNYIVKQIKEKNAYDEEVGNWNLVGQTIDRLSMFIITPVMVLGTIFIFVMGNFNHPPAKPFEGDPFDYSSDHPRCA", "UniProt P21728, sequence (whole entry, looked up)": "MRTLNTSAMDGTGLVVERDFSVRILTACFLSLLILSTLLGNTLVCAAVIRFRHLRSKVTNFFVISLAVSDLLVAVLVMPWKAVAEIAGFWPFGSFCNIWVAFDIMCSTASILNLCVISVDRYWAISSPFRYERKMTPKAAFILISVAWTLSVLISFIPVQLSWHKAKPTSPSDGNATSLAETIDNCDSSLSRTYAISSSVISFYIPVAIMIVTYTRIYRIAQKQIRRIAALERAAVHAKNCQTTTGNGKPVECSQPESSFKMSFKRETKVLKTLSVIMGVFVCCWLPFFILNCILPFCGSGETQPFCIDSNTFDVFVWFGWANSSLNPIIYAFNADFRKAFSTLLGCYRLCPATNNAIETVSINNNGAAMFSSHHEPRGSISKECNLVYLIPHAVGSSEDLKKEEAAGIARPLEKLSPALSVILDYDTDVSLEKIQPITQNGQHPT", "UniProt P02710, sequence (whole entry, looked up)": "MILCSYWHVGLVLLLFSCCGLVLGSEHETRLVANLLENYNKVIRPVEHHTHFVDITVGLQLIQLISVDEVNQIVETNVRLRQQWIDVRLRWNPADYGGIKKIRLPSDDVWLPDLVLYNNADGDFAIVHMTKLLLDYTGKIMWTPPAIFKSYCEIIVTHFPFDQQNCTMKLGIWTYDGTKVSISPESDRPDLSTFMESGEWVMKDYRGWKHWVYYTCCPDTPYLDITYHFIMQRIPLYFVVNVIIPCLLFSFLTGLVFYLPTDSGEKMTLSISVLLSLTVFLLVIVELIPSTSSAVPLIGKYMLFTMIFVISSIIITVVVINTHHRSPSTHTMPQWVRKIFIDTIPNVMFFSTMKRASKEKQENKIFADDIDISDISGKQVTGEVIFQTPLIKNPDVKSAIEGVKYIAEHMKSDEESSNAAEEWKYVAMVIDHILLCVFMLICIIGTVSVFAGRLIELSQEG", "UniProt O35433, sequence (whole entry, looked up)": "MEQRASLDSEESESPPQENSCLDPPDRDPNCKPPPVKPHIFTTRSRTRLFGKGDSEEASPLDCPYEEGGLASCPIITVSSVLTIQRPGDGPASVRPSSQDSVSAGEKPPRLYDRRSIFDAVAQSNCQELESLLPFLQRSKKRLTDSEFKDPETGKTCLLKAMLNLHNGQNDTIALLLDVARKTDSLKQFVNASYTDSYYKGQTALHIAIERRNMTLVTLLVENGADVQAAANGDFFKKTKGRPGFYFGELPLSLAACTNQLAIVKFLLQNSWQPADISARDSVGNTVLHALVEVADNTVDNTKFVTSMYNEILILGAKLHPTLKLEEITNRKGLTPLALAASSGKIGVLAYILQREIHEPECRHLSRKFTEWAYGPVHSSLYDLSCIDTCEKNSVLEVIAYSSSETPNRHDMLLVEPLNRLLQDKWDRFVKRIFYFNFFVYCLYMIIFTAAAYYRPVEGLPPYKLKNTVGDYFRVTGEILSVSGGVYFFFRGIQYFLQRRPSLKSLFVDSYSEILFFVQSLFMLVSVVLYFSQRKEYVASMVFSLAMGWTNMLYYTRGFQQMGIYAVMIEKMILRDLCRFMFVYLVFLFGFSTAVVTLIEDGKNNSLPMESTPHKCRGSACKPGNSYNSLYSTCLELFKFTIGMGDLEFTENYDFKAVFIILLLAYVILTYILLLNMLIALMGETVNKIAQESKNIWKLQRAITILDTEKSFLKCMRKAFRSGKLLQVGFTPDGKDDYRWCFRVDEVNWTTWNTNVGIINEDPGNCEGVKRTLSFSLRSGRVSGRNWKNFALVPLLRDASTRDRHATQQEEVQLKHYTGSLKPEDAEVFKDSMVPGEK", "UniProt Q61618, sequence (whole entry, looked up)": "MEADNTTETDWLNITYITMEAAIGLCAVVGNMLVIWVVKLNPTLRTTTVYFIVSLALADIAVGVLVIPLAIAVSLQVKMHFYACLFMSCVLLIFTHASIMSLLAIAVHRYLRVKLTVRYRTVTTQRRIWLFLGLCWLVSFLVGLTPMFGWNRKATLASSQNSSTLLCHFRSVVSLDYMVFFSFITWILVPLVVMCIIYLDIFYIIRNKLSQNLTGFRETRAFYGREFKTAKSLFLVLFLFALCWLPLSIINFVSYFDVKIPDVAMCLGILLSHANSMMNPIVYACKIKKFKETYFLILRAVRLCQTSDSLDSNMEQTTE", "UniProt O00748, sequence (whole entry, looked up)": "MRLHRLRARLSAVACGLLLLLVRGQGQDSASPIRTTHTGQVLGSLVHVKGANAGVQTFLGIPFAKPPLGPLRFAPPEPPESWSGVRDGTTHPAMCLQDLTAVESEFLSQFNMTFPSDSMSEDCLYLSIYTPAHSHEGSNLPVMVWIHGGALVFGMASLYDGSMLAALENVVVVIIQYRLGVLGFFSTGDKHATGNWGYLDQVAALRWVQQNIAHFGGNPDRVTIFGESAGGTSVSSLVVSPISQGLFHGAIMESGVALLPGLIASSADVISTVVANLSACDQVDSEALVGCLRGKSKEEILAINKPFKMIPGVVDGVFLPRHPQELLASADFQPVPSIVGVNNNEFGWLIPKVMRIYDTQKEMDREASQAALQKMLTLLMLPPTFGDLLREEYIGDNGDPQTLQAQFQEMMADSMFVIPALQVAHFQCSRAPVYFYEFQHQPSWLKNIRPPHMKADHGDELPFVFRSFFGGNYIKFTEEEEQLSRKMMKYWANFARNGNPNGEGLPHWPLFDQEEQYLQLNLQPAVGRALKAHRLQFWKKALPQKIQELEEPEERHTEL"}
{"SMILES": "CCN[C@@H](C)Cc1ccc2ccccc2c1", "target": "serotonin transporter", "assay": "binding", "conditions": "K+-free high Na+ buffer", "Ki [µM]": 0.004}
{"SMILES": "COc1ccc(CC[C@H]2CCC[C@@H](CCc3ccc(OC)cc3)N2C[C@@H](O)CO)cc1 (relative stereo)", "target": "alpha4beta2 nicotinic acetylcholine receptor", "assay": "binding", "conditions": "with: [3H]nicotine", "Ki [µM]": "> 100"}
{"SMILES": "NCC(N)P(=O)(O)O (centres unmarked)", "target": "Cytosol aminopeptidase", "assay": "inhibitor", "Ki [µM]": "> 800"}
{"SMILES": "CS(=O)(=O)Nc1ccc(SSc2ccc(NS(C)(=O)=O)cc2)cc1", "target": "Cocaine esterase (CES2, Homo sapiens, UniProt O00748)", "Ki [µM]": "> 100"}
{"SMILES": "C=CCN(CC=C)CCc1c[nH]c2ccc(F)cc12", "target": "DRD1", "Ki [µM]": "> 10"}
{"SMILES": "COc1ccc2[nH]cc(CCNCc3ccc(Cl)cc3)c2c1", "target": "5-hydroxytryptamine receptor 2A (HTR2A, Homo sapiens, UniProt P28223)", "assay": "binding", "conditions": "with: agonist radioligand", "Ki [µM]": 0.105}
{"SMILES": "N#Cc1c(N)nc(SCC(N)=O)c(C#N)c1-c1ccc(OCC2CC2)cc1", "target": "Adenosine receptor A3 (Mus musculus, UniProt Q61618)", "assay": "binding, antagonist", "conditions": "mouse receptor", "Ki [µM]": 3.92}
{"SMILES": "C=C(C)[C@H]1Cc2c(ccc3c2O[C@@H]2COc4cc(OC)c(OC)cc4[C@@H]2C3=O)O1", "target": "TSPO", "conditions": "with: [3H]Ro5-4864", "Ki [µM]": 10.5}
{"SMILES": "C=C(C)[C@@]12C[C@@H](C)C34OC(Cc5ccccc5)(OC1[C@@H]3C=C(COC(=O)Cc1cc(Br)c(N)c(OC)c1)C[C@]1(O)C(=O)C(C)=C[C@@H]41)O2 (some centres unmarked)", "target": "Transient receptor potential cation channel subfamily V member 1 (Trpv1, Rattus norvegicus, UniProt O35433)", "assay": "calcium uptake, antagonist, 45Ca2+ uptake", "test system": "CHO", "Ki [µM]": 0.00281}
{"SMILES": "CN1C/C(=C\\c2ccc(Cl)cc2Cl)C/C(=C\\c2ccc(Cl)cc2Cl)C1", "target": "Synaptic vesicular amine transporter (Slc18a2, Rattus norvegicus, UniProt Q01827)", "assay": "binding", "conditions": "with: dihydrotetrabenazine site", "Ki [µM]": 4.6}
{"SMILES": "CCC(CC)O[C@@H]1C=C(C(=O)O)C[C@H](N)[C@H]1NC(C)=O", "target": "human Neu2", "assay": "enzyme activity, inhibitor", "Ki [µM]": 432}
{"SMILES": "O=C(NO)c1ccccc1", "target": "MR Y54W", "assay": "competitive inhibitor", "conditions": "with: 15 mM Mg2+", "Ki [µM]": "110 ± 10"}
{"SMILES": "Brc1ccc([C@@H]2CCNC[C@H]2COc2ccc3c(c2)OCO3)cc1", "target": "serotonin transporter", "assay": "[3H]5-HT uptake, inhibitor", "Ki [µM]": 0.00313}
{"SMILES": "C=C1CC[C@@H]2[C@@H](C1)c1c(OC)cc(C(C)(C)CCCCCC)cc1OC2(C)C", "target": "CB1 receptor", "assay": "binding", "Ki [µM]": 4.8}
{"SMILES": "O=[As](O)(O)O", "target": "Triosephosphate isomerase, glycosomal (Trypanosoma brucei brucei, UniProt P04789, L232A)", "assay": "enzyme activity, inhibitor", "conditions": "pH 7.5, 25 °C, ionic strength 0.1 (NaCl), with: dihydroxyacetone phosphate", "Ki [µM]": 4600}
{"SMILES": "C=CCN(CC=C)CCc1c[nH]c2ccc(Br)cc12", "target": "DRD1", "Ki [µM]": "> 10"}
{"SMILES": "CN1[C@@H](CC(=O)c2ccccc2)CCC[C@H]1C[C@H](O)c1ccccc1", "target": "alpha7 nicotinic acetylcholine receptor", "assay": "binding", "conditions": "with: [3H]methyllycaconitine", "Ki [µM]": 11.6}
{"SMILES": "CC(C)CN(C[C@@H](O)[C@H](Cc1ccccc1)NC(=O)O[C@H]1CO[C@H]2OCC[C@H]21)S(=O)(=O)c1ccc(N)cc1", "target": "PR S17 variant", "assay": "isothermal titration calorimetry", "Ki [µM]": 0.05}
{"SMILES": "Nc1nc2c(ncn2[C@@H]2O[C@H](COP(=O)(O)OP(=O)(O)OP(=O)(O)O)[C@@H](O)[C@H]2O)c(=O)[nH]1", "target": "dengue virus 2 capsid protein", "assay": "fluorescence polarisation competition", "Ki [µM]": 0.119}
{"SMILES": "C=C1C[C@@H]2C[C@@H]3CC(=C)C[C@H](/C=C/C(C)(C)[C@]4(O)O[C@@H](C/C(=C\\C(=O)OC)[C@@H]4OC(=O)/C=C/C=C/CCC)C[C@H]([C@@H](C)O)OC(=O)C[C@H](O)C[C@H](C1)O2)O3", "target": "Protein kinase C alpha type (PRKCA, Homo sapiens, UniProt P17252)", "assay": "binding, competitive", "Ki [µM]": "0.0007 ± 1e-05"}
{"SMILES": "O=c1c(-c2ccccc2)ccc2n1C[C@@H]1CNC[C@H]2C1", "target": "CHRNA1/CHRNG/chrnd", "Ki [µM]": "> 10"}
{"SMILES": "COc1cc(O)c2c(O)c3c(=O)cc(C)oc3cc2c1", "target": "Amine oxidase [flavin-containing] A (MAOA, Homo sapiens, UniProt P21397)", "assay": "competitive inhibitor", "conditions": "binding to free enzyme", "Ki [µM]": 4.38}
{"SMILES": "CC=O", "target": "yeast alcohol dehydrogenase wild-type", "assay": "inhibitor, product inhibition, slope constant", "conditions": "pH 7.3, 30 °C", "Ki [µM]": 210}
{"SMILES": "CC(C)CNCC(N)P(=O)(O)O (centres unmarked)", "target": "Cytosol aminopeptidase", "assay": "inhibitor", "Ki [µM]": "> 800"}
{"SMILES": "O=c1c(-c2cccnc2)ccc2n1C[C@@H]1CNC[C@H]2C1", "target": "CHRNA1/CHRNG/chrnd", "Ki [µM]": "> 5"}
{"SMILES": "CN1[C@@H](CCc2ccccc2)CCC[C@H]1CCc1ccccc1", "target": "alpha4beta2 nicotinic acetylcholine receptor", "assay": "binding", "conditions": "with: [3H]nicotine", "Ki [µM]": 77.3}
{"note": "Some of these lines once more:"}
{"SMILES": "C=C(C)[C@H]1Cc2c(ccc3c2O[C@@H]2COc4cc(OC)c(OC)cc4[C@@H]2C3=O)O1", "target": "TSPO", "conditions": "with: [3H]Ro5-4864", "Ki [µM]": 10.5}
{"SMILES": "Brc1ccc([C@@H]2CCNC[C@H]2COc2ccc3c(c2)OCO3)cc1", "target": "serotonin transporter", "assay": "[3H]5-HT uptake, inhibitor", "Ki [µM]": 0.00313}
